Measurements gathered from unrelated publications.
Protocols differ between the studies behind these lines. ± gives the spread as reported.

Structure (SMILES) | cell line | test | test system | setting | IC50
C[C@H]1Oc2cc(cnc2N)-c2c(nn(C)c2C#N)CN(C)C(=O)c2ccc(F)cc21 | NCI-H2228, EML4-ALK v3 | – | – | – | < 0.001 µM
Cn1nc(-c2ccccc2)c2c1OC(N)=C(C#N)C2c1ccc(-n2ccnc2)cc1 (centres unmarked) | NCI-H2122 | anchorage-independent growth | – | – | 1.3 ± 0.3 µM
Cc1cc2c(F)c(Oc3ncnn4cc(OC[C@@H](C)O)c(C)c34)ccc2[nH]1 | HD-MB03 | – | – | 168 h | inactive
CC(=O)Nc1ccc(C(=O)Oc2ccc3[nH]c4ccccc4c3c2)cc1 | rat vascular smooth muscle cells | cell proliferation, MTT | – | added: PDGF-BB | 6.11 µM
COc1cccc2c1C(=O)c1c(O)c3c(c(O)c1C2=O)C[C@@](O)(C(=O)CO)C[C@@H]3O[C@H]1C[C@H](N)[C@H](O)[C@H](C)O1 | HD-MB03 | cell growth | – | 168 h, single agent | 0.134 µM
Cc1c(C(=O)O)ccc2c3n(nc12)[C@@H]1[C@H](C3)N(CC2CC2)[C@@]2(C(=O)Nc3cc(Cl)ccc32)[C@H]1c1cccc(Cl)c1F | RKO | cell growth, alamarBlue | – | unbound, 4.5% of total | 0.00265 µM
C[C@@H](Oc1cc(-c2cnn(C3CCNCC3)c2)cnc1N)c1c(Cl)ccc(F)c1Cl | Rh3 (alveolar rhabdomyosarcoma) | cell growth | – | 3 days | 0.45 ± 0.14 µM
C[C@H](Nc1ccc2c(c1)OCCn1cc(N3C(=O)OC[C@H]3C(F)F)nc1-2)C(N)=O | NCI-H596 | growth rate inhibition, CellTiter-Glo | – | 120 h | 0.0486 µM
CC1(C)COc2ccc(F)cc2CN2c3nc4c(cnn4cc3OC[C@H]2C(F)F)C(=O)N1 | NCI-H3122 (EML4-ALK variant 1) | cell viability | – | – | 0.128 µM
COc1cccc(OCCCN)c1-c1cc(Nc2cnc(C#N)cn2)n[nH]1 | HD-MB03 | cell growth | – | 168 h, single agent | 0.0304 µM
O=C(O)COCC(=O)O | iPSC-derived hepatocytes B3 | cell viability | – | 72 h, differentiation day 23 | 7270 µM
CCCS(=O)(=O)Nc1ccc(F)c(C(=O)c2c[nH]c3ncc(-c4ccc(Cl)cc4)cc23)c1F | SK-MEL-2 (NRAS Q61R) | ERK phosphorylation, Western blot | – | 1 h | > 30 µM
CC1(C)CCC(c2ccc(Cl)cc2)=C(CN2CCN(c3ccc(C(=O)NS(=O)(=O)c4ccc(N[C@H](CCN5CCOCC5)CSc5ccccc5)c(S(=O)(=O)C(F)(F)F)c4)cc3)CC2)C1 | HD-MB03 | cell growth | – | 168 h, single agent | 0.0381 µM
COc1ccc(C(=O)Nc2ccc(NC(=N)N)c(OCc3cc(C)ccc3C)c2)cc1 | RAW264.7 | cell growth, MTT | – | 48 h | > 500 µM
CN1CCN(CCCN2c3ccccc3Sc3ccc(C(F)(F)F)cc32)CC1 | THLE-2 cells, Ad-Null transduced | cell viability | – | no enzyme control | 72 ± 28 µM
Cc1ccc(C)c(COc2cc(NC(=O)c3cc(C(F)(F)F)cc(C(F)(F)F)c3)ccc2NC(=N)N)c1 | RAW264.7 | cell growth, MTT | – | 48 h | > 500 µM

Structure (SMILES) | cell line | test | test system | setting | IC50
Cc1nc(NC(=O)N2CCC[C@H]2C(N)=O)sc1-c1ccnc(C(C)(C)C(F)(F)F)c1 | NCI-H596 | growth rate inhibition, CellTiter-Glo | – | 120 h | 0.204 µM
COc1cc2nccc(Oc3ccc(NC(=O)C4(C(=O)Nc5ccc(F)cc5)CC4)cc3)c2cc1OC | Rh3 (alveolar rhabdomyosarcoma) | cell growth | – | 3 days | 3.94 ± 1.06 µM
COc1ccc(F)cc1C(=O)NCc1ccc(-c2nn([C@@H](C)C(F)(F)F)c(N)c2C(N)=O)cc1 | TMD8 BTK C481S | cell proliferation | – | 72 h | 0.0264 µM
CC(C)c1ccc(C2C(C#N)=C3N=C(N)c4ccccc4N3C3=C2C(=O)CCC3)cc1 (centres unmarked) | HMC3 | nuclear intensity, high-content imaging | – | geometric mean | 58.5 µM
Cc1c(C(=O)Nc2ccc(N3C[C@@H](C)O[C@@H](C)C3)nc2)cccc1-c1ccc(OC(F)(F)F)cc1 | HD-MB03 | – | – | 168 h | inactive
C[C@H](Nc1ncnc2nc[nH]c12)c1cc2cccc(Cl)c2c(=O)n1-c1ccccc1 | human basophils | up-regulation, CD63, fMLP-induced, item: CD63 | human whole blood | added: fMLP | 2 µM
Cn1c(=O)n(-c2ccc(C(C)(C)C#N)cc2)c2c3cc(-c4cnc5ccccc5c4)ccc3ncc21 | HD-MB03 | cell growth | – | 168 h, DMSO | 0.0534 µM
CCCc1nc2c(n1Cc1ccc(-c3ccccc3-c3nnn[nH]3)cc1)C(=O)CCCC2 | human skeletal muscle cells | BCKD phosphorylation, AlphaLISA | – | – | > 60 µM
Cc1c(C)c2c(c(C)c1O)CCC(C)(COc1ccc(CC3SC(=O)NC3=O)cc1)O2 (centres unmarked) | iPSC-derived hepatocytes B3 | cell viability | – | 48 h, differentiation day 23 | 46 µM
CCc1nc(C(N)=O)c(Nc2ccc(N3CCC(N4CCN(C(=O)CCCCCCNc5ccc(S(=O)(=O)NC(=O)c6ccc(N7CCN(CC8=C(c9ccc(Cl)cc9)CC(C)(C)CC8)CC7)cc6Oc6cnc7[nH]ccc7c6)cc5[N+](=O)[O-])CC4)CC3)c(OC)c2)nc1NC1CCOCC1 | MOLM-14 FLT3-ITD F691L gilteritinib-resistant | cell viability, alamarBlue | – | 48 h | > 10 µM
CN(c1ccc(NC(=O)c2ccc(C(=N)N)cc2)cc1OCc1ccc(C(F)(F)F)cc1)S(=O)(=O)Cc1ccccc1 | RAW264.7 | cell growth, MTT | – | 48 h | > 500 µM
CC(=O)c1c(O)c(C)c(O)c2c1OC1=CC(=O)C(C(C)=O)C(=O)C12C (single isomer, unassigned; (+)) | hepatocytes, iPSC-derived, W2 line | cell viability | – | 72 h | 25 µM
CCOc1cc(C(C)(C)C)ccc1C1=N[C@@](C)(c2ccc(Cl)cc2)[C@@](C)(c2ccc(Cl)cc2)N1C(=O)N1CCN(CCCS(C)(=O)=O)CC1 | HD-MB03 | cell growth | – | 168 h, single agent | 0.479 µM
CCCCc1nc(Cl)c(CO)n1Cc1ccc(-c2ccccc2-c2nn[nH]n2)cc1 | human skeletal muscle cells | BCKD phosphorylation, AlphaLISA | – | – | > 60 µM
CCCCN1C[C@H](O)[C@@H](O)[C@@H](O)[C@H]1CO | sample C patient fibroblasts | GlcCer level lowering, LC-MS/MS, item: GlcCer d18:1/16:0 | – | 216 h | 29.6 µM
O=C(NC[C@H](O)CO)c1ccncc1Nc1ccc(I)cc1F | HD-MB03 | cell growth | – | 168 h, single agent | 1.02 µM

Excerpt of the above:
Structure (SMILES) | cell line | test | test system | setting | IC50
CN(c1ccc(NC(=O)c2ccc(C(=N)N)cc2)cc1OCc1ccc(C(F)(F)F)cc1)S(=O)(=O)Cc1ccccc1 | RAW264.7 | cell growth, MTT | – | 48 h | > 500 µM
CCCCN1C[C@H](O)[C@@H](O)[C@@H](O)[C@H]1CO | sample C patient fibroblasts | GlcCer level lowering, LC-MS/MS, item: GlcCer d18:1/16:0 | – | 216 h | 29.6 µM
Cn1c(=O)n(-c2ccc(C(C)(C)C#N)cc2)c2c3cc(-c4cnc5ccccc5c4)ccc3ncc21 | HD-MB03 | cell growth | – | 168 h, DMSO | 0.0534 µM
CC(=O)c1c(O)c(C)c(O)c2c1OC1=CC(=O)C(C(C)=O)C(=O)C12C (single isomer, unassigned; (+)) | hepatocytes, iPSC-derived, W2 line | cell viability | – | 72 h | 25 µM
COc1cccc2c1C(=O)c1c(O)c3c(c(O)c1C2=O)C[C@@](O)(C(=O)CO)C[C@@H]3O[C@H]1C[C@H](N)[C@H](O)[C@H](C)O1 | HD-MB03 | cell growth | – | 168 h, single agent | 0.134 µM
